Measured values pooled from the literature.
Compare with care: the assays were run in different laboratories. “And” joins repeats or separate records; there may be more than shown. ± marks the error that the study gave.
Cell line: A549

With `CCN1CC2(COC)CCC(O)C34C5CC6C(OC)CC(O)(C5C6OC(C)=O)C(C(OC)C23)C14` (stereo not shown) the IC50 was 24.6 µM (cell growth or viability, MTT).
With `CC(C)C[C@@H](NC(=O)[C@@H](C)NC(=O)[C@@H](CCCCN)NC(=O)[C@@H](CC(C)C)NC(=O)[C@@H](C)NC(=O)[C@H]1CCCN1C(=O)[C@@H](CC(C)C)NC(=O)[C@@H](Cc1c[nH]c2ccccc12)NC(=O)[C@@H](CCCCN)NC(=O)[C@@H](C)NC(=O)[C@@H](CC(C)C)NC(=O)[C@@H](C)NC(=O)[C@@H](Cc1c[nH]cn1)NC(=O)[C@@H](CCCCN)NC(=O)[C@@H](CC(C)C)NC(=O)[C@@H](C)NC(=O)[C@@H](CCCCN)NC(=O)[C@H](N)CCCCN)C(=O)N[C@H](C)C(=O)N[C@H](Cc1c[nH]cn1)C(=O)N[C@H](CCCCN)C(=O)N[C@H](CC(C)C)C(=O)N[C@H](C)C(=O)N[C@H](CCCCN)C(=O)N[C@H](CCCCN)C(N)=O` the EC50 was 7.58 ± 0.42 µM (cytotoxicity, MTT; four hours, 37 °C, serum-free medium).
The GI50 of `CCCc1cc2c(c(OC)c1OC)OCO2` is reported as over 250 µM (cell growth or viability, MTT; 72 h).
For `O=C(CN1C(=O)S/C(=C\c2ccccc2Br)C1=O)Nc1ccc(C(=O)Nc2ccc(F)cc2)cc1`, the selectivity index was 24.8 (MTT; baseline: IC50 Vero over IC50 A549).
The GI50 of `COc1c(C)cc2c(c1OC)OCO2` is reported as over 250 µM (cell growth or viability, MTT; 72 h).
`CC(C)C[C@@H](NC(=O)[C@@H](C)NC(=O)[C@@H](CC(C)C)NC(=O)[C@@H](CCCCN)NC(=O)[C@@H](CCCCN)NC(=O)[C@@H](CC(C)C)NC(=O)[C@@H](C)NC(=O)[C@H]1CCCN1C(=O)[C@@H](CC(C)C)NC(=O)[C@@H](Cc1c[nH]c2ccccc12)NC(=O)[C@@H](CCCCN)NC(=O)[C@@H](CCCCN)NC(=O)[C@@H](CC(C)C)NC(=O)[C@@H](C)NC(=O)[C@@H](CC(C)C)NC(=O)[C@@H](CC(C)C)NC(=O)[C@@H](C)NC(=O)[C@@H](CC(C)C)NC(=O)[C@@H](CCCCN)NC(=O)[C@H](N)CCCCN)C(=O)N[C@H](CC(C)C)C(=O)N[C@H](C)C(=O)N[C@H](CC(C)C)C(=O)N[C@H](CCCCN)C(=O)N[C@H](CCCCN)C(N)=O` gave an EC50 of 2.44 ± 0.43 µM (cytotoxicity, MTT; four hours, 37 °C, serum-free medium).
`CC(C)=CCC/C(C)=C/C[P+](c1ccccc1)(c1ccccc1)c1ccccc1` has a GI50 of 0.58 µM (cell growth or viability, MTT; 72 h).
The inhibition of `CCOP(=O)(OCC)OCCCCOC(=O)CC1=C(C)C(=Cc2ccc([S+](C)[O-])cc2)c2ccc(F)cc21` (stereo not shown) is reported as 94% (cell proliferation, BrdU incorporation; IC50, 24 h).
For `CCCc1cc(OC)c2c(c1)OCO2`, the GI50 was over 250 µM (cell growth or viability, MTT; 72 h).
For `Cc1[nH]c(=O)c(CNC(=O)c2ccc(C(F)(F)F)cc2)c2c1CCCC2`, the selectivity index was over 40 (MTT; baseline: A549 IC50 over M. tuberculosis MIC).
For `C=CCc1cc2c(c(OC)c1OC)OCO2`, the GI50 was over 250 µM (cell growth or viability, MTT; 72 h).
Under antiproliferative activity, `CC(C)C(O)C(NC(=O)[C@H](Cc1ccc(O)cc1)NC(=O)C(Cc1ccc(O)cc1)[N+](C)(C)C)C(=O)N[C@@H](C)C(=O)O` (stereo partly shown) is recorded as “inactive” (100 µM).
The apoptotic cells of `CC1=CC[C@]2(C(=O)O[C@H]3OC[C@@H](O)[C@@H](O)[C@@H]3OS(=O)(=O)O)CC[C@]3(C)C(CCC4[C@@]5(C)CC[C@H](O)C(C)(C)C5CC[C@]43C)C2[C@H]1C` (stereo partly shown) is reported as 32 fold (annexin V/PI flow cytometry; concentration not given, 48 h; baseline: untreated).
The IC50 of `CCN1CC2(COC)CCC(O)C34C5CC6C(OC)CC(O)(C5C6O)C(C(OC)C23)C14` (stereo not shown) is reported as 17.1 µM (cell growth or viability, MTT).
The phototoxicity index of `Cc1cccc(-c2cccc(C)n2)n1.[Cl-].[Cl-].[Ru+2].c1ccc(-c2ccccn2)nc1.c1ccc(-c2ccccn2)nc1` is reported as > 36.1 and 36.1 (resazurin; baseline: dark EC50 over light EC50).
With `CCCCN(CCCC)CC(O)COc1c2ccoc2c(OC)c2oc(CC)cc(=O)c12` (stereo not shown) the selectivity index was 1.65 (MTT; baseline: IC50 HaCaT over IC50 A549).
The CC50 of `CC/C=C\C/C=C\C/C=C\C/C=C\C/C=C\C/C=C\CCC(=O)Nc1ccn(C2OC(CO)C(O)C2(F)F)c(=O)n1` (stereo not shown) is reported as 43.8 µM (NCI-60 screen).
Under “lowest effective concentration”, `CC(C)[C@H]1NC(=O)[C@H](CO)NC(=O)c2cc3cc(c2)C(=O)NC[C@H](NC(=O)[C@H](Cc2c[nH]cn2)NC(=O)[C@H](Cc2ccc(C(F)(F)P(=O)(O)O)cc2)NC(=O)[C@@H]2CCCN2C1=O)C(=O)N[C@@H](Cc1ccccc1)C(=O)N[C@@H](Cc1ccc2ccccc2c1)C(=O)N[C@@H](CCCNC(=N)N)C(=O)N[C@@H](CCCNC(=N)N)C(=O)N[C@@H](CCCNC(=N)N)C(=O)N[C@@H](CCCNC(=N)N)C(=O)N[C@H](C(=O)N[C@@H](CCCCN)C(N)=O)CNC3=O` is recorded as 8 nM (tyrosine phosphorylation increase, anti-pY immunoblot; 2 h).
`CC(C)C[C@@H](NC(=O)[C@@H](C)NC(=O)[C@@H](CC(C)C)NC(=O)[C@@H](CCCCN)NC(=O)[C@H](N)CCCCN)C(=O)N[C@H](Cc1c[nH]cn1)C(=O)N[C@H](C)C(=O)N[C@H](CC(C)C)C(=O)N[C@H](CCCCN)C(=O)N[C@H](CCCCN)C(=O)N[C@H](Cc1c[nH]c2ccccc12)C(=O)N[C@H](CC(C)C)C(=O)N[C@H](Cc1c[nH]cn1)C(=O)N[C@H](C)C(=O)N[C@H](CC(C)C)C(=O)N[C@H](CCCCN)C(=O)N[C@H](CCCCN)C(=O)N[C@H](CC(C)C)C(=O)N[C@H](C)C(=O)N[C@H](Cc1c[nH]cn1)C(=O)N[C@H](CC(C)C)C(=O)N[C@H](C)C(=O)N[C@H](CC(C)C)C(=O)N[C@H](CCCCN)C(=O)N[C@H](CCCCN)C(N)=O` has an EC50 of 4.54 ± 0.3 µM (cytotoxicity, MTT; four hours, 37 °C, serum-free medium).
For `C=CCc1cc(OC)c(OC)c(OC)c1OC`, the GI50 was over 250 µM (cell growth or viability, MTT; 72 h).
`NS(=O)(=O)c1ccc2c(c1)[C@@H]1[C@@H](Cl)[C@H](Sc3ccccc3[N+](=O)[O-])C[C@H]1[C@H](c1ccc(Cl)cc1)N2` gave an apoptotic cells of 57.4% (Annexin V/PI flow cytometry; 20 µM, 48 h, hypoxia).
The GI50 of `CCCCCCCCC[P+](c1ccccc1)(c1ccccc1)c1ccccc1` is reported as 0.171 µM (cell growth or viability, MTT; 72 h).
For `CC(C)C[C@@H](NC(=O)[C@@H](C)NC(=O)[C@@H](CCCCN)NC(=O)[C@H](N)CCCCN)C(=O)N[C@H](C)C(=O)N[C@H](Cc1c[nH]cn1)C(=O)N[C@H](C)C(=O)N[C@H](CC(C)C)C(=O)N[C@H](CCCCN)C(=O)N[C@H](CCCCN)C(=O)N[C@H](Cc1c[nH]c2ccccc12)C(=O)N[C@H](CC(C)C)C(=O)N1CCC[C@@H]1C(=O)N[C@H](C)C(=O)N[C@H](CC(C)C)C(=O)N[C@H](CCCCN)C(=O)N[C@H](CCCCN)C(=O)N[C@H](CC(C)C)C(=O)N[C@H](C)C(=O)N[C@H](Cc1c[nH]cn1)C(=O)N[C@H](C)C(=O)N[C@H](CC(C)C)C(=O)N[C@H](C)C(=O)N[C@H](CCCCN)C(=O)N[C@H](CCCCN)C(N)=O`, the EC50 was 2.21 ± 0.63 µM (cytotoxicity, MTT; four hours, 37 °C, serum-free medium).
For `O=C(CN1C(=O)S/C(=C\c2ccccc2)C1=O)Nc1ccc(C(=O)Nc2ccc(F)cc2)cc1`, the selectivity index was 21.9 (MTT; baseline: IC50 Vero over IC50 A549).
The EC50 of `Cc1cccc(O)c1C(=O)OCC1(O)C(Nc2ccc3c(c2)Cc2ccccc2-3)C(N)C(NC(=O)N(C)C)(C(C)O)C1(C)O` (stereo not shown) is reported as 0.324 µM (cell growth or viability).

A few entries again:
The GI50 of `COc1c(C)cc2c(c1OC)OCO2` is reported as over 250 µM (cell growth or viability, MTT; 72 h).
